# Experimental data collected from several papers.
# Compare with care: the assays were run in different laboratories. Values joined by “and” are separate records of one study, mostly repeats; a detail may differ. ± gives the spread as reported.
# Chain of UniProt P54760 (whole entry, looked up): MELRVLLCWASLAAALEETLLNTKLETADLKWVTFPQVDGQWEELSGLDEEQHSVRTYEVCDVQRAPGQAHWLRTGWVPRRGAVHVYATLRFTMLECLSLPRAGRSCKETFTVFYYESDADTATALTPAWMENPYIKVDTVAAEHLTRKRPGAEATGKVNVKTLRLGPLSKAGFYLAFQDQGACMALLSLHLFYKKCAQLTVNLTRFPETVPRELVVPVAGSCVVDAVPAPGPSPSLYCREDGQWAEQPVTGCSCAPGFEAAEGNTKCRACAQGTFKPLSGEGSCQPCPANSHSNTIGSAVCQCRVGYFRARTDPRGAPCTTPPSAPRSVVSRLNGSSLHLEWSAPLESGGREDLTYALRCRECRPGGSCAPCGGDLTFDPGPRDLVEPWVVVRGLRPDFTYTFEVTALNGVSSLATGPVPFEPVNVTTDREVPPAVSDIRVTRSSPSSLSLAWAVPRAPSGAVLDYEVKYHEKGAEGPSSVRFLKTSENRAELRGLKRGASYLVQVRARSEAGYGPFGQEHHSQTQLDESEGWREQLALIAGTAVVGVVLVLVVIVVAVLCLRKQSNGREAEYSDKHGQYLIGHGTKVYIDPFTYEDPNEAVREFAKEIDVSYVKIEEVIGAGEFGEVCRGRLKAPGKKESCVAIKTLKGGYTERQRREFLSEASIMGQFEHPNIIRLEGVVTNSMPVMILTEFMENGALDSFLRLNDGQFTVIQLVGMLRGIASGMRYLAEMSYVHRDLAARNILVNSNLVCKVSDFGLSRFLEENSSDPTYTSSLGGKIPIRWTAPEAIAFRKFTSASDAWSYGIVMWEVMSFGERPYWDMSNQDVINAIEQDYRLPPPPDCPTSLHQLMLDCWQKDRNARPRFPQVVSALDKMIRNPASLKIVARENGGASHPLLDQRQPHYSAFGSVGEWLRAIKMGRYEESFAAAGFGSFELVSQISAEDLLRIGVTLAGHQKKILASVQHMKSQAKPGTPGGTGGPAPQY
# Chain of UniProt P29275 (whole entry, looked up): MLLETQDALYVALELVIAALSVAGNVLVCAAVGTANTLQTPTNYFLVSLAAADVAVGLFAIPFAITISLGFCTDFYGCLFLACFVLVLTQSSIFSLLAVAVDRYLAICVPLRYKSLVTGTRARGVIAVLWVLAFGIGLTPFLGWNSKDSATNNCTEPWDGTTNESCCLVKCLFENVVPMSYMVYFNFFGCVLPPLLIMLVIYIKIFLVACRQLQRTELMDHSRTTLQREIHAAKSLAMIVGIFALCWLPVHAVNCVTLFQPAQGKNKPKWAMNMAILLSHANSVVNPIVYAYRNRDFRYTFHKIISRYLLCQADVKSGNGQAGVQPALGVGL
Structure (SMILES),tested on,test,system,setting,scale,measurement,value
C[C@H]1CN(c2n[nH]c3nc(N[C@H]4CC[C@H](NS(=O)(=O)CCC(F)(F)F)CC4)ncc23)CCO1,"Putative ribosomal protein uL10-like (RPLP0P6, Homo sapiens, UniProt Q8NHW5)","competitor, Kinobeads competition, item: RPLP0-like",human cell extract,0.032 µM,relative to: vehicle,relative abundance,0.98
Cn1cc2cc(C(F)(F)c3nnc4ccc(-c5cnn(C6CC6)c5)nn34)c(F)cc2n1,MKN-45,CCK-8,,"0.1 µM, 72 h",relative to: untreated,viability,6.25% and 6.22% and 5.62%
COc1ccc(N2C(=O)N(c3c(C)cccc3Cl)Cc3cnc(Nc4ccc(C5CCN(C)CC5)cc4OC)nc32)nc1,"EPHB4 (Homo sapiens, UniProt P54760)",kinase activity,,0.5 µM,,inhibition,97%
O=S(=O)(c1ccc(O)cc1)c1ccc(O)cc1,HepG2 spheroids,annexin V/PI flow cytometry,,"40 µM, 24 h",,viability,57.6 ± 10.8%
CC[C@H](C)[C@H](NC(=O)[C@H](Cc1ccccc1)NC(=O)[C@H](CCC(=O)O)NC(=O)[C@H](CCCNC(=N)N)NC(=O)[C@H](C)NC(=O)[C@H](C)NC(=O)[C@H](CCC(N)=O)NC(=O)[C@H](CCC(=O)O)NC(=O)[C@H](CCC(=O)O)NC(=O)[C@H](CC(C)C)NC(=O)[C@H](Cc1ccc(O)cc1)NC(=O)[C@H](CO)NC(=O)[C@H](CO)NC(=O)[C@@H](NC(=O)[C@H](CC(=O)O)NC(=O)[C@H](CO)NC(=O)[C@@H](NC(=O)[C@H](Cc1ccccc1)NC(=O)[C@@H](NC(=O)CNC(=O)[C@H](CCC(=O)O)NC(=O)[C@H](C)NC(=O)CCc1c[nH]cn1)[C@@H](C)O)[C@@H](C)O)C(C)C)C(=O)N[C@@H](C)C(=O)N[C@@H](Cc1c[nH]c2ccccc12)C(=O)N[C@@H](CC(C)C)C(=O)N[C@H](C(=O)N[C@@H](CCCNC(=N)N)C(=O)NCC(=O)N[C@@H](CCCNC(=N)N)C(=O)N[C@@H](CCCCNC(=O)COCCOCCNC(=O)COCCOCCNC(=O)CC[C@H](NC(=O)CCCCCCCCCCCCCCCCC(=O)O)C(=O)O)C(=O)NCC(=O)NCC(=O)N[C@@H](CO)C(=O)N[C@@H](CCCCNc1c(NCCCCCN(O)C(=O)CCC(=O)NCCCCCN(O)C(=O)CCC(=O)NCCCCCN(O)C(C)=O)c(=O)c1=O)C(=O)O)C(C)C [zirconium-89 labelled],,gamma counting,"rat, skin of neck","intravenous, 3 nmol/kg, 24 h",,tissue uptake,0.31 %ID/g
Cn1c(C(=O)Nc2ccc(Cl)cc2)cc2c(=O)n3ccccc3nc21,Vero,MTT,,"100 µM, 24 (unit not given)",,viability,52.4%
COc1cc(Nc2ncc(F)c(Nc3ccc4c(n3)NC(=O)C(C)(C)O4)n2)cc(OC)c1OC,"ADORA2B (Homo sapiens, UniProt P29275)",,,,,IC50,> 10 µM
CC(=O)c1cccc(NC(=O)c2cc3c(=O)n4ccccc4nc3n2C)c1,Vero,MTT,,"0.4 µM, 24 (unit not given)",,viability,93.2%
CC(C)C[C@H](NC(=O)[C@H](C)NC(=O)[C@@H](NC(=O)[C@H](CCCNC(=N)N)NC(=O)[C@H](CC(C)C)NC(=O)[C@H](Cc1c[nH]c2ccccc12)NC(=O)[C@@H]1CCCN1C(=O)[C@@H](N)CCCCN)C(C)C)C(=O)N[C@@H](CS)C(=O)N1CCC[C@H]1C(=O)NCC(=O)O,H9c2,WST-1,,"4 µM, 24 h",,viability,86% and 86.9% and 108%
Cc1cccn2c(=O)c3cc(C(=O)Nc4ccc(N(C)C)cc4)n(C)c3nc12,Vero,MTT,,"6.3 µM, 24 (unit not given)",,viability,69.4%
NC(=O)CNC(=O)[C@H](Cc1ccc(F)cc1)NC(=O)[C@@H](Cc1ccccc1)NC(=O)OCc1ccccc1,Vero/SLAM cells,CCK-8,,"100 µM, 24 h, 1% DMSO",,viability,101.1 ± 0.5%
O=C(Nc1ccc(SSc2ccc(NC(=O)c3ccccc3)cc2)cc1)c1ccccc1,Jurkat E6-1,WST-8,,"10 µM, 24 h",relative to: control,viability,67.5%
COc1cc2c(Oc3ccc4[nH]c(C)cc4c3F)ccnc2cc1OCC1(N)CC1,,,paediatric recurrent refractory sarcoma,10 mg,,grade 1 or 2 Rash,0%
CO[C@H]1C[C@@H]2CC[C@@H](C)[C@@](O)(O2)C(=O)C(=O)N2CCCC[C@H]2C(=O)O[C@H]([C@H](C)C[C@@H]2CC[C@@H](OC(=O)NCCOCCOCCOCCOCCOCCOCCOCCOCCC(=O)N3CCc4cc(Cn5nc(-c6ccc7oc(N)nc7c6)c6c(N)ncnc65)ccc4C3)[C@H](OC)C2)C[C@@H](O)[C@H](C)/C=C(\C)[C@@H](O)[C@@H](OC)C(=O)[C@H](C)C[C@H](C)/C=C/C=C/C=C/1C,,phase 1 dose escalation,advanced solid tumour patients,"intravenous, 8 mg weekly, any grade",,deaths due to TEAEs,0%
O=C(Nc1ccccc1F)c1cc2c(=O)n3ccccc3nc2n1Cc1ccccc1,Vero,MTT,,"1.6 µM, 24 (unit not given)",,viability,70.2%
O=C(Nc1cccc(OS(=O)(=O)c2ccc(Cl)cc2)c1)c1ccc2ncccc2c1,1321N1 astrocytoma,MTT,,"100 µM, 24 h",,viability,78.31 ± 0.78%
N=C(N)NCCC[C@@H](NC(=O)[C@H](Cc1ccccc1)NC(=O)[C@@H](Cc1ccccc1)NC(=O)OCc1ccccc1)C(N)=O,Vero/SLAM cells,CCK-8,,"100 µM, 24 h, 1% DMSO",,viability,99.4 ± 2.6%
O=S(=O)(Nc1ccc(-c2n[nH]c(=S)o2)cc1)c1ccc(C(F)(F)F)cc1,1321N1 astrocytoma,MTT,,"100 µM, 24 h",,viability,70% and 70.2%
CC(=N)S,"THLE-2, 3D culture",MTT,,"400 µM, 96 h",,viability,62.2%
